Experimental data collected from several papers.
A part holds a random share of what one study measured.

Set 1
Cell line: HEK-293T
Observed: pseudovirus infection
Technique: FDA-approved drug library screen
Organism: VSV pseudotyped with SARS-CoV-2 spike
Concentration: 10 µM
Time: 16 h
Reference: vehicle-treated
SMILES	GFP-positive cells
COc1ccccc1OCCNCC(O)COc1cccc2[nH]c3ccccc3c12 (stereo not drawn)	38.7%
CCOC(=O)[C@H](CCc1ccccc1)N[C@@H](C)C(=O)N1Cc2ccccc2C[C@H]1C(=O)O	77%
COCCCOc1cc(C[C@@H](C[C@H](N)[C@@H](O)C[C@H](C(=O)NCC(C)(C)C(N)=O)C(C)C)C(C)C)ccc1OC	60.6%
Cc1cn([C@H]2C=C[C@@H](CO)O2)c(=O)[nH]c1=O	101%
CC[C@H]1OC(=O)[C@H](C)[C@@H](O[C@H]2C[C@@](C)(OC)[C@@H](O)[C@H](C)O2)[C@H](C)[C@@H](O[C@@H]2O[C@H](C)C[C@H](N(C)C)[C@H]2O)[C@](C)(O)C[C@@H](C)CN(C)[C@H](C)[C@@H](O)[C@]1(C)O	18.4%

Set 2
Target: Histone acetyltransferase KAT6A, winged helix 2, GST fusion (KAT6A, Homo sapiens, UniProt Q92794, residues 85-181)
Technique: protein binding microarray
Form: double-stranded DNA, one strand shown
Medium: in vitro
Concentration: not given
Notes: 8-mer, flanks averaged, mean of 2 arrays, mostly near background
Reference: not given
Reading: higher = stronger binding
Residues (chain): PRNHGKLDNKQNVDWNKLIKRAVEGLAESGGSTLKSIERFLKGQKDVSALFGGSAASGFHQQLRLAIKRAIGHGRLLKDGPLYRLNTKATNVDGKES
Sequence	E-score
CGGGGACC	0.23
CTCTATCA	-0.0526
GACTACCC	-0.216
ATACACAA	-0.019
CCCGTAAA	0.0373
GCGAGGTA	0.105
TGATTACA	0.055
GCGGGGCC	0.254

Set 3
Target: RNA binding protein fox-1 homolog 2, RRM domain, GST-SBP tag (RBFOX2, Homo sapiens, UniProt O43251-10, residues 100-194)
Technique: RNA Bind-n-Seq
Form: RNA
Medium: in vitro
Concentration: 365 nM
Notes: natural RNA segment, single round, ends assumed
Reference: no-protein control
Reading: higher = stronger binding
Construct (chain): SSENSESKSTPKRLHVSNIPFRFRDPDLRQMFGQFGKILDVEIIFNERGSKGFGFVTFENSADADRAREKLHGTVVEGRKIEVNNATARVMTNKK
Sequence	RBNS enrichment (R)
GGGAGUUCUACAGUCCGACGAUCGCAAAAGCAAUGGUCGGAUGUAAAUAACAUUUAAAGUAUAGUGCACAUAACUUCCCCGGACUGUUCCAAUCUGAUAAUUUGUAAAUGCUUUAGAGUUUUUUUAAUUAACAUGGAAUUCUCGGGUGCCAA	0.468
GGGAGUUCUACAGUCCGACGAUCAAUUAAUGACACUGAAGGAAUGAUGCAAAAACUUCCCAUGAUUCAUCACUGAAAAUAUGACUAAUAAAUGUCUCUUCCUUUUUCUUCCUGUCUCCAUCCCCAUGCCUUGUUGGAAUUCUCGGGUGCCAA	1.17
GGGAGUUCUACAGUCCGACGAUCUUGCUGUAUUUACUGAAAUCUCUGGCACAGAAGGAAGUGUGUUUGCCUCACACACCAUUUGUCCCAGACCAGUGGCAUUAGGCCAUAUAUUCUCUUCUAGUGUUUGCUUAUGGAAUUCUCGGGUGCCAA	0.431
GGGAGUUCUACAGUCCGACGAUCCAGAUUGAGGUCUCUGUGGCUUUGGUGACCCUGCUUAAGCAUUCCCACCGUGUCCCUGUUCUGCGCUAGCACUGCCUCCUGCUGCAGCCCCUGACUUGACCUCAGGGCCUUGGAAUUCUCGGGUGCCAA	0.603
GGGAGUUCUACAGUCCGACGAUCCAGGUAGCAGUAAUAGAAAACAACCUCACACCAUUUUCACAAUGGCCGCCCAUCCUCGGGGACUGUGAGUGUCCUUGUCUUAGUCAAAGCACAUCUCCUACCAAAAUUGCUGGAAUUCUCGGGUGCCAA	0.412
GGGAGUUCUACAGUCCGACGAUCUAGAUUUAUUUUGAGAAGUAAUUGUUCACUCUUUACUUUUGAGGCAGCCAUUAGGUUGAAAGUAUAUAUUUAUCAUAUAAAACUUGAUGCGUUUUGCACUACUCUUUCCAUGGAAUUCUCGGGUGCCAA	0.436
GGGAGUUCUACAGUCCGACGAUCUCAGGACCCCGCCUCUGUCCUCACUGUGCCAGGCCAUAGCCAGAGGCCACCCUGUAGUACAGGGAUGAGUCUUGGUGUGUUCUGCAGGGACAGGCCUGGAUGAUCUAGCUUGGAAUUCUCGGGUGCCAA	0.274
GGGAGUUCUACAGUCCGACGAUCAGGGCCCACACUUAGAAGGACCCCACACUUGGUUCAAGGCUCUGCUAUAGCGGAAAUUCUUAAUAAUGUUUGAAGAAGGGCCCCAUGAUUUCAUUUUGUGCUGAGCCCUCUGGAAUUCUCGGGUGCCAA	0.558

Set 4
Organism: SARS-CoV-2
Observed: cytopathic effect
Cells: Vero E6
Concentration: 10 µM
Compound	inhibition [%]
CN(C)CCNc1nc2cc(O)ccc2c2c1C(=O)c1ccccc1-2	-10.3
COc1ccc2[n-]c([S@@+]([O-])Cc3ncc(C)c(OC)c3C)nc2c1.COc1ccc2[n-]c([S@@+]([O-])Cc3ncc(C)c(OC)c3C)nc2c1.O.O.O.[Mg+2]	-3.3
O=C(O)C1[O][Sb]2[O]C(=O)C([O]2)C(C(=O)O)[O][Sb]2[O]C(=O)C1[O]2 (stereo not drawn)	-2.1

Set 5
Target: Replicase polyprotein 1ab, nsp13 helicase (rep, Severe acute respiratory syndrome coronavirus 2, UniProt P0DTD1)
Mode: inhibitor
Concentration: 20 µM
SMILES	inhibition
O=C(O)CCC(=O)Nc1ccc(S(=O)(=O)Nc2nccs2)cc1	3.61%
COC(=O)C1=C(C)NC(C)=C(C(=O)OC(C)(C)CN(C)CCC(c2ccccc2)c2ccccc2)C1c1cccc([N+](=O)[O-])c1 (stereo not drawn)	5.67%
CC(C)(C)c1cc(C(C)(C)C)c(NC(=O)c2c[nH]c3ccccc3c2=O)cc1O	6.2%
C[C@@H]1C[C@H]2[C@@H]3C[C@H](F)C4=CC(=O)C=C[C@]4(C)[C@@]3(F)[C@@H](O)C[C@]2(C)[C@@]1(O)C(=O)CO	8.06%
COc1cc(/C=C/C(=O)CC(=O)/C=C/c2ccc(O)c(OC)c2)ccc1O	0.71%
Cc1cnc(-c2ccccc2C(C)C)nc1NCc1ccc(-n2ccnn2)cc1	13.9%
N#Cc1ccc(-c2ccc(S(=O)(=O)Nc3cccc(N)n3)cc2)cc1	-1.01%
Oc1cc2c(c(Cl)c1O)CCNCC2c1ccccc1 (stereo not drawn)	0%
Clc1ccc(CCCOCCCN2CCCCC2)cc1	10.3%
Cc1ccc(C23CNCC2C3)cc1 (stereo not drawn)	8.15%
CC(C)CCNC(=O)[C@H](CC(C)C)NC(=O)[C@H]1O[C@@H]1C(=O)O	0.37%
CNCCn1c(=O)c2cc(OC)c(OC)cc2c2cnc3cc4c(cc3c21)OCO4	4.33%
CC(C)(CO)c1cc2cc(NC(=O)C3(c4ccc5c(c4)OC(F)(F)O5)CC3)c(F)cc2n1C[C@@H](O)CO	7.27%
C[C@H](N)Cc1cccc(O)c1	-1.13%
C[C@]12C/C(=C/O)C(=O)C[C@@H]1CC[C@@H]1[C@@H]2CC[C@@]2(C)[C@H]1CC[C@]2(C)O	1.71%
Cn1nnc(-c2ccc(-c3ccc(N4C[C@H](COP(=O)(O)O)OC4=O)cc3F)cn2)n1	7.03%
CCN(CC)CCNC(=O)c1ccc(N)cc1	1.87%
C[C@@H](O[C@H]1OCCN(Cc2n[nH]nc2CN(C)C)[C@H]1c1ccc(F)cc1)c1cc(C(F)(F)F)cc(C(F)(F)F)c1	2.63%
CC(C)CN(C[C@@H](O)[C@H](Cc1ccccc1)NC(=O)O[C@H]1CO[C@H]2OCC[C@H]21)S(=O)(=O)c1ccc(N)cc1	6.2%
COc1ccc(C2(O)OC(=O)C(c3ccc4c(c3)OCO4)=C2Cc2cc(OC)c(OC)c(OC)c2)cc1 (stereo not drawn)	10.2%
O=C(O)C1CN(Cc2ccc(-c3nc4cc(Cc5ccccc5F)ccc4s3)c(F)c2)C1	-2.37%
CCCn1c(=O)c2[nH]c(C34C[C@@H]5CC3C[C@@H](C5)C4)nc2n(CCC)c1=O	-0.81%
O=C(O)c1ccc(N2N=C(Cc3ccccc3)/C(=C\c3ccc(-c4ccccc4F)o3)C2=O)cc1	4.99%
C=C[C@]1(C)C[C@@H](OC(=O)CS[C@@H]2C[C@H]3CC[C@@H](C2)N3C)[C@]2(C)[C@H](C)CC[C@]3(CCC(=O)[C@H]32)[C@@H](C)[C@@H]1O	5.03%
Cc1cc2c(cc1C(F)(F)F)N(C(=O)Nc1ccc(Oc3cccnc3C)nc1)CC2	-3.84%

Set 6
Target: Centromere-binding protein 1, full length, N-terminal tag (CBF1, Saccharomyces cerevisiae, UniProt P17106, residues 1-351)
Sequence of UniProt P17106 (whole entry, looked up): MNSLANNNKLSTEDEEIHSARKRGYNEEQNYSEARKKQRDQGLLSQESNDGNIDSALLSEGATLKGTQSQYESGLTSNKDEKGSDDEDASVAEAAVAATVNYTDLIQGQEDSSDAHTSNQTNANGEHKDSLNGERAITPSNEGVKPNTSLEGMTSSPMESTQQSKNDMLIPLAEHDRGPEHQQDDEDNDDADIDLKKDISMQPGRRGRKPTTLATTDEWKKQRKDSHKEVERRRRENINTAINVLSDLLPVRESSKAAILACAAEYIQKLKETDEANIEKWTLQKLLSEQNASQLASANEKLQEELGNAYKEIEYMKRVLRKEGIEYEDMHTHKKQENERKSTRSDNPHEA
Technique: protein-binding microarray
Form: double-stranded DNA, one strand shown
Medium: in vitro
Concentration: 0.8 µM
Notes: whole 60-bp probe, no competitor
Reading: higher = stronger binding
Sequence	fluorescence intensity [a.u.]
GAAGCTTTTGAAGGTGGTGTCATTATTATTACGTAGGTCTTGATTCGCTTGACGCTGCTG	504
GAATAAATTTCACGTGATGCGGTAGTTTTTTTTTAGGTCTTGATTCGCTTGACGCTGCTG	13800
GAATAATTTTTTTTTACCGTGACGCGTCTCACCTAGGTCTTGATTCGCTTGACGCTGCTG	611
CTAGGAAAAGTGTCTCACATGTAAAGGATTAAATTCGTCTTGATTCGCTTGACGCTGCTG	730
GAATGGTTGAATAATCATGAGAAGTACATCAATTAGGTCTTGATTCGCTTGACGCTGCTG	515

Excerpt of the above (set 6):
Sequence	fluorescence intensity [a.u.]
GAATGGTTGAATAATCATGAGAAGTACATCAATTAGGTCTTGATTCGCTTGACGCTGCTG	515
CTAGGAAAAGTGTCTCACATGTAAAGGATTAAATTCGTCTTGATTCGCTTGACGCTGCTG	730
GAATAAATTTCACGTGATGCGGTAGTTTTTTTTTAGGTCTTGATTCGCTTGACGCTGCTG	13800
GAAGCTTTTGAAGGTGGTGTCATTATTATTACGTAGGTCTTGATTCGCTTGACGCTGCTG	504
GAATAATTTTTTTTTACCGTGACGCGTCTCACCTAGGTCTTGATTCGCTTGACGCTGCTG	611
